Assay results pooled from the literature.
Each numbered part is a random draw from the data of one study; scales do not carry over between parts. Changes are numbered by the printed parent chain.

Study 1
Target: tungstate, free oxyanion
Method: microfluidic competitive inhibition
Sample: in vitro, cell-free expressed
Tested at: not given
Notes: derived from inhibition constants, unchanged parent 2230 nM
Direction: lower = stronger binding
Parent: PafA, mature enzyme, eGFP fusion (Elizabethkingia meningoseptica, UniProt Q9KJX5); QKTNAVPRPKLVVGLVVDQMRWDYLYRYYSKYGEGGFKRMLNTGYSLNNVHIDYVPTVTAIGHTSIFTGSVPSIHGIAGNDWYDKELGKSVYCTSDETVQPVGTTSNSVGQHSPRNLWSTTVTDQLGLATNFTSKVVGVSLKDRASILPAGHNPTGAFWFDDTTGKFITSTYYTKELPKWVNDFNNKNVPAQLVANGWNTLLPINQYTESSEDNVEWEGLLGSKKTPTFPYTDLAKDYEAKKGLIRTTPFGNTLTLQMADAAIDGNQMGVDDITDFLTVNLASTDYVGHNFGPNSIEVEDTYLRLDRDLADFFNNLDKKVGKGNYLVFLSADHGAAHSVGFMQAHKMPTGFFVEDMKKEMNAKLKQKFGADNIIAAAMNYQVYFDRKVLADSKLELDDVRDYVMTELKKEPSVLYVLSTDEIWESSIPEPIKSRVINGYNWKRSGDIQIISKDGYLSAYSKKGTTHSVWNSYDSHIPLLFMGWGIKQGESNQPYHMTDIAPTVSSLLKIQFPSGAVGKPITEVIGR
Variant	oxyanion analog dissociation constant [µM]
H152V	1.79
I296G	1.99
G334A	2.35

Study 2
Target: NFE2L1, bZIP domain (human)
Method: DHFR protein complementation
Sample: yeast
Notes: single substitutions, most at no-binding floor
Baseline: wild-type JUN-FOS pair
Direction: higher = stronger binding
Parent: JUN, bZIP domain (human); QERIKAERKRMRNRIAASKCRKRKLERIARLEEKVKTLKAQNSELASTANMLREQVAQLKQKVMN; partner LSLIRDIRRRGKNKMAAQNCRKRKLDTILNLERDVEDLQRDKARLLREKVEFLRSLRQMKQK
Variant	binding fitness [natural log]
A49D	-1.61
T37M	-1.51
A46T	-1.54
A40H	-1.56
A29T	-1.46
K36T	-1.52
S47E	-1.58
S47M	-1.51

Study 3
Target: CCND3, cyclin fold, Cln2 fusion (human)
Method: yeast growth competition, sequencing
Sample: yeast
Notes: weak parent motif
Baseline: not given
Direction: higher = stronger binding
Parent: viral docking peptide; PTARRRLLHDLDT
Variant	normalised enrichment score
L7A	0.0726
T2A	0.081
L8F	0.423
L11A	0.0979
H9A	0.125
D10A	0.0806
R5K H9F	-0.064
H9F	0.51
R6A	0.167
R5A R6A L7A L8A	0.173

Study 4
Target: UDP-N-acetylglucosamine--peptide N-acetylglucosaminyltransferase 110 kDa subunit (OGT, Homo sapiens, UniProt O15294)
Sequence of UniProt O15294 (whole entry, looked up): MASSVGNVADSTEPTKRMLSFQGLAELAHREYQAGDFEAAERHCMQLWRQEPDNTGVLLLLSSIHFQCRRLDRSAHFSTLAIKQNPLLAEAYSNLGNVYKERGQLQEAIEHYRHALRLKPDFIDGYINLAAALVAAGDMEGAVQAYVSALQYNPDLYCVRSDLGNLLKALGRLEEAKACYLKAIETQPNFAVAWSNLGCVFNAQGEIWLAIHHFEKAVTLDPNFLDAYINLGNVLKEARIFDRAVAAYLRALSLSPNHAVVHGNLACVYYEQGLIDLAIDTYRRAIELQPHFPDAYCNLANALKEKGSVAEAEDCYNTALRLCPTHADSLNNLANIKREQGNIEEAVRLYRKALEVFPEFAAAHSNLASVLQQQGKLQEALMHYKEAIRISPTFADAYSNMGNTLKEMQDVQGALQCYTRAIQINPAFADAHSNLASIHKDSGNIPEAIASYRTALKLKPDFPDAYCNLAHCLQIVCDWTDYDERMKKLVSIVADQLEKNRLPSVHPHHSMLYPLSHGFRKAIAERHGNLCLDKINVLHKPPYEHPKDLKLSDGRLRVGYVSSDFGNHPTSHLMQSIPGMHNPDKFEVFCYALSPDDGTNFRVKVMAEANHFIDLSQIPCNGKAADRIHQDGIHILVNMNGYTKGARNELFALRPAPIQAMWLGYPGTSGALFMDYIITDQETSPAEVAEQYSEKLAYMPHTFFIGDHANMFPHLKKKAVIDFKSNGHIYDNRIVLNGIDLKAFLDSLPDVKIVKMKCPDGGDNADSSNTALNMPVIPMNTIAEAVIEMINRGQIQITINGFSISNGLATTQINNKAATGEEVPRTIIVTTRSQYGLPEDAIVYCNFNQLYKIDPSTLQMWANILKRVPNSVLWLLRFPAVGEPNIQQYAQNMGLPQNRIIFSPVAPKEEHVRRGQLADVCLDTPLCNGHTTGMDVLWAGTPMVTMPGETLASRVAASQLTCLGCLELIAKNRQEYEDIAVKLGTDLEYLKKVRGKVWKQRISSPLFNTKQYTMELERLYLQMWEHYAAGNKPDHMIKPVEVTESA
Effect on: binding
Method: phage display NGS
Form: peptide
Notes: panning round 2
Baseline: input library
Molecule	minimum log2 enrichment ratio
DFLYMPKYQMVFDFT	6.57
WPHAQHITHQDDWHR	2.27
THPTKYHRHDHIRMI	2.44
NIWMPVYQIRYSYNT	4.13

Some of these lines once more (study 3):
Variant	normalised enrichment score
R5K H9F	-0.064
R6A	0.167
